Measured values of several laboratories.
Each line is one published result; not all experiments were run side by side.
Target: Bifunctional epoxide hydrolase 2 (EPHX2, Homo sapiens, UniProt P34913)
Sequence of UniProt P34913 (whole entry, looked up): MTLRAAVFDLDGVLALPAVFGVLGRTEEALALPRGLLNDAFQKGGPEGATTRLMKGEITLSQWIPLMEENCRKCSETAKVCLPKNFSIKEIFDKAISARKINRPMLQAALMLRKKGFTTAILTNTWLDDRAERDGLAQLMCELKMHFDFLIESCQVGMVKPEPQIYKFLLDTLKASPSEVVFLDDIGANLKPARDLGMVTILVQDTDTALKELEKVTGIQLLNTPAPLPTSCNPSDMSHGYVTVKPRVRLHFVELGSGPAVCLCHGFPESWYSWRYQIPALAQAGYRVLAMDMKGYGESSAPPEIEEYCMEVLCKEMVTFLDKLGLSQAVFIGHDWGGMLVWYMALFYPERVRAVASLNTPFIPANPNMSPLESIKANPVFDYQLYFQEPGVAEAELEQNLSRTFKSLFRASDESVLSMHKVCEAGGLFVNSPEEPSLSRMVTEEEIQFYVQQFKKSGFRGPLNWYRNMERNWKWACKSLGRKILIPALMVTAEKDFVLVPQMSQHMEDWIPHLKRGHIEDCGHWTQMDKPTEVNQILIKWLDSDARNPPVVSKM
Effect on: enzyme activity
Action: inhibitor

SMILES | method | pH | setting | IC50 [nM]
O=C(Nc1ccc(-c2nc(-c3ccccc3)cs2)cc1)C1CCN(Cc2ccccc2)CC1 | fluorescence | pH 7.4 | with preincubation | 223
COc1cc(C(=O)O)ccc1Cc1cn(C)c2ccc(NC(=O)OC3CCCC3)cc12 | fluorescence | – | – | 300
CCC(=O)NC1CCN(C(=O)c2ccc(NC(=O)NC34CC5CC(C)(CC(C)(C5)C3)C4)cc2)CC1 | – | – | – | 0.6
CC12CC3CC(C)(C1)CC(NC(=O)NC14CC5(C)CC(C)(CC(C)(C5)C1)C4)(C3)C2 | fluorescence | – | – | 160
O=C(Nc1ccc(-c2nc(-c3ccccc3)cs2)cc1)C1CCN(Cc2cccc(O)c2)CC1 | fluorescence | pH 7.4 | with preincubation | 224
O=C(NCCc1ccc(O)cc1)c1cc2cc(O)c(O)cc2c(-c2ccc(O)c(O)c2)c1C(=O)NCCc1ccc(O)cc1 | – | – | – | 18300
CC1(C)[C@H]2CC[C@]1(C)[C@H](NC(=O)Nc1ccc(F)cc1)C2 | fluorescence | – | – | 4
CCCC(=O)N1CCN(C(=O)c2ccc(NC(=O)NC34CC5CC(C)(CC(C)(C5)C3)C4)cc2)CC1 | – | – | – | 0.89
O=C(Nc1ccc(-c2nc(-c3ccccc3)cs2)cc1)C1CCN(Cc2ccccc2[N+](=O)[O-])CC1 | fluorescence | pH 7.4 | with preincubation | 101
CC12CC3CC(C)(C1)CC(NC(=O)Nc1ccc(C(=O)N4CCC[C@H](NS(C)(=O)=O)C4)cc1F)(C3)C2 | – | – | – | 0.11
O=C(Nc1ccc(-c2nc(-c3ccccc3)cs2)cc1)C1CCN(CC2CCCCC2)CC1 | fluorescence | pH 7.4 | with preincubation | 1150
COc1cc2cc(C(=O)NCCc3ccc(O)cc3)c(C(=O)NCCc3ccc(O)cc3)cc2cc1O | – | – | – | 8900
CNC(=O)C1CCN(C(=O)c2ccc(NC(=O)NC34CC5CC(C)(CC(C)(C5)C3)C4)cc2)CC1 | – | – | – | 0.74

Excerpt of the above:
SMILES | method | pH | setting | IC50 [nM]
COc1cc(C(=O)O)ccc1Cc1cn(C)c2ccc(NC(=O)OC3CCCC3)cc12 | fluorescence | – | – | 300
CC1(C)[C@H]2CC[C@]1(C)[C@H](NC(=O)Nc1ccc(F)cc1)C2 | fluorescence | – | – | 4
